Measured values gathered from unrelated publications.
A part holds a random share of what one study measured.

Sample 1
Target: Histone acetyltransferase KAT6A, winged helix 1, GST fusion (KAT6A, Homo sapiens, UniProt Q92794, residues 1-85)
Method: protein binding microarray
Molecule type: double-stranded DNA, one strand shown
Medium: in vitro
Concentration: not given
Setting: 8-mer, flanks averaged, mean of 2 arrays, mostly near background
Relative to: not given
Direction: higher = stronger binding
Construct (chain): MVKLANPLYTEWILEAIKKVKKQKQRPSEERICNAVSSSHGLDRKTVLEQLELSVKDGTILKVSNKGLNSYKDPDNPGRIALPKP
| Oligonucleotide | E-score |
| --- | --- |
| CAAAGGGG | -0.227 |
| CGTCTCTA | -0.0796 |
| ACACTAAG | -0.146 |
| CAGACAAC | -0.158 |
| GAAAGAAC | -0.1 |
| CATAGGGA | -0.199 |
| AGGCCTGG | -0.147 |
| GCGCGGCA | 0.449 |
| TCCAAGGA | -0.00502 |
| ACACTGGG | -0.144 |
| ACAACGAG | -0.255 |

Sample 2
Target: Ras GTPase-activating protein-binding protein 1, RRM domain (G3BP1, Homo sapiens, UniProt Q13283)
UniProt Q13283, sequence (whole entry, looked up): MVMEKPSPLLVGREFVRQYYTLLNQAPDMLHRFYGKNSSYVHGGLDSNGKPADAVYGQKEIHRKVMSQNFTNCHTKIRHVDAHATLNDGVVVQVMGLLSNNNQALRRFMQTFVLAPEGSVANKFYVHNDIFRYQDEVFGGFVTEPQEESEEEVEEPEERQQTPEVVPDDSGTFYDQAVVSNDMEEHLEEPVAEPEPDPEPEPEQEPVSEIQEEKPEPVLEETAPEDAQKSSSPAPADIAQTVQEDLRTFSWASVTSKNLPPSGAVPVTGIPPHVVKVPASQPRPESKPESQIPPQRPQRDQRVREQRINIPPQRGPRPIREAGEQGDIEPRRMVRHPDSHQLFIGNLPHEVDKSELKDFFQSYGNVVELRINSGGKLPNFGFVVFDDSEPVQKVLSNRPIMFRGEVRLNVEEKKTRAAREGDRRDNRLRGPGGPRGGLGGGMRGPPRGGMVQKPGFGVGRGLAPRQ
Method: RNA Bind-n-Seq
Molecule type: RNA
Medium: in vitro
Concentration: 1 µM
Setting: whole 134-nt RNA, ends assumed
Together with: 150 mM KCl
Relative to: input library
Direction: higher = stronger binding
Shared flanks, not repeated: GGGAGUUCUACAGUCCGACGAUC … UGGAAUUCUCGGGUGUCAAGG
| Oligonucleotide | log2 enrichment |
| --- | --- |
| UAACUUUAGAGGAGGAUCUGAUGGAUAUGGCAGUGGACGUGGAUUUGGGGAUGGCUAUAAUGGGUAUGGAGCAGGACCUGGAGGUGGCAA | -0.331 |
| CAAGUCCUGUGCUACACAUCGUAUGUACCGAAUCGGAAAGGUUUGGUUUUUUUGGAAAGUAUUAUGUUACGCCGUUCGGAUCUGCACUUC | -0.323 |
| CCUGUGCUACACAUCGUAUGUACCGAAUCGGUUUUUUUGGGUUUUUUUGGGGUUUUUUUGGAAAGUAUUAUGUUACGCCGUUCGGAUCUG | -0.301 |
| UGGCCCUGGUGGCAUGCGGGGAGGAAGAGGUGGCCUCAUGGAUCGUGGUGGUCCCGGUGGAAUGUUUAGAGGUGGCCGUGGUGGAGACAG | 0.33 |
| UCAAGUCCUGUGCUACACAUCGUAUGUACCGAAUCGGUUUUUUUGGAAAGGUGGAAAGUAUUAUGUUACGCCGUUCGGAUCUGCACUUCC | -0.164 |
| AGUCCUGUGCUACACAUCGUAUGUACCGAAUCGGGCCCCGGGGCCCCGGGGCCCCGGAAAGUAUUAUGUUACGCCGUUCGGAUCUGCACU | -0.681 |
| UGGGAGGUGGAUUUUGUUUAUUUUUUUAGCUCAUUUCCAGGGGUGGGAAUUUUUUUUUAAUAUGUGCCAUGAAUAAAGUUGUUUUUGAAA | 2 |
| UGCUGGCAGCCAAGCAGCAGCAGGAGAUGCUGGCAGCCAAGCGGCAGCAGGAGCUGGAGCAGCAGCGGCAGCGGGAGCAGCAGCGGCAGG | -0.511 |
| AAGUCCUGUGCUACACAUCGUAUGUACCGAAUCGGAAAAAAAGGUUUGGAAAAAGGAAAGUAUUAUGUUACGCCGUUCGGAUCUGCACUU | -0.211 |

Mixed results
| Molecule | target or system | assay | test system | setting | how to read | measurement | result |
| --- | --- | --- | --- | --- | --- | --- | --- |
| GSPLKKLFTSTAL | Saccharomyces cerevisiae | peptide binding, yeast competitive growth sequencing | peptide, cyclin E2-Cln2 fusion | concentration not given, combined libraries | direction not given | binding score | -0.372 |
| PhoQ, residues 284 288 289 292 302 303 SSTLLI | PhoP, residues 12 14 15 18 19 LHHVQ (Escherichia coli, UniProt P23836) | Sort-seq, item: YFP reporter | E. coli | PhoQ-PhoP variant library, together with: 10 µM Mg2+ | relative to: high Mg2+ state, higher = stronger signaling | fold induction | 0.153 |
